# Assay results of several laboratories.
# Protocols differ between the studies behind these lines. Values joined by “and” are separate records of one study, mostly repeats; a detail may differ. ± marks the error that the study gave.
SMILES,test system,conditions,how to read,tissue uptake
COc1ccc(NC(=O)Cn2c(=O)c3ccccc3n(CC(=O)Nc3cc([125I])c(OC)cc3OC)c2=O)cc1,"Wistar rat (normal), thyroid","intravenous, 0.08333 h",,0.32 ± 0.11 %ID/g
CCNc1cc2[o+]c3cc(NCC)c(C)cc3c(-c3ccccc3C(=O)OCCOCC[18F])c2cc1C,"rat, liver",30 min,,0.15 %ID/g and 0.14 %ID/g
O=C(O)CCCN1CCN2CCN(CC1)CC(=O)[O][Al]([18F])[O]C(=O)C2,"Sprague-Dawley rat, renal pedicle ligation, liver",60 min,,4 ± 0.2 %ID
CCN(CC)c1ccc2c(-c3ccccc3C(=O)OCCC[18F])c3ccc(=[N+](CC)CC)cc-3oc2c1,"rat, heart",60 min,,1.32 %ID/g and 1.03 %ID/g
"O=C(c1ccc(F)cc1)C1CCN(C2Cc3c(cccc3OCC[18F])CC2O)CC1 (single isomer, unassigned; (-))","Sprague-Dawley rat, male, hippocampus",5 min post-injection,,0.645 %ID/g
CN(C)c1ccc(C(=O)NCCCCN2CCN(c3ccccc3O[11CH3])CC2)cc1,"male Sprague Dawley rat, muscle","iv, 30 min",reference: untreated,0.071 %ID/g
CCN(CC)c1ccc2c(-c3ccccc3C(=O)OCCOCC[18F])c3ccc(=[N+](CC)CC)cc-3oc2c1,"rat, gut","dose not given, 60 min post injection",,1.69 ± 0.42 %ID/g
COc1cc2ccnc(Cc3ccc(O[11CH3])c(OC)c3)c2cc1OC,"Sprague-Dawley rats, testes","intravenous, 0.5 h",,0.094 ± 0.017 %ID/g

# A few entries again:
SMILES,test system,conditions,how to read,tissue uptake
"O=C(c1ccc(F)cc1)C1CCN(C2Cc3c(cccc3OCC[18F])CC2O)CC1 (single isomer, unassigned; (-))","Sprague-Dawley rat, male, hippocampus",5 min post-injection,,0.645 %ID/g
